Assay results pooled from the literature.
Protocols differ between the studies behind these lines.
CDK2: Cyclin-dependent kinase 2 (CDK2, Homo sapiens, UniProt P24941)
CDK2 with cyclin A: Cyclin-dependent kinase 2, with cyclin A (CDK2, Homo sapiens, UniProt P24941)
CDK2 with cyclin E1: Cyclin-dependent kinase 2, with cyclin E1 (CDK2, Homo sapiens, UniProt P24941)

C[C@H](NCc1ccc(-c2ccc(C(F)(F)F)cc2)cc1)C(N)=O — inhibition (CDK2; cell-free assay, competition with immobilised ligand; 1 µM): 4%
Nc1ccc(/C=C/C(=O)N2CCc3c(oc4c(-c5ccc(F)cc5)cc(-c5ccc(C(=O)N6CCC(F)(F)CC6)cn5)cc34)C2)cn1 — remaining binding (CDK2; binding, competition with immobilised ligand; 1 µM): 97%
N[C@H](C(=O)N1CCCC1)C1CCN(c2nccc3c(-c4ncc(Cl)cc4Cl)cccc23)CC1 — inhibition (CDK2 with cyclin A; kinase activity, inhibitor; 10 µM, with: ATP 1 mM): 2.8%
CS(C)(=O)=Nc1ccc(-c2ccc(-c3nc4cc(O[C@@H]5CO[C@H]6[C@@H]5OC[C@H]6O)[nH]c4cc3F)cc2)cc1 — inhibition (CDK2 with cyclin A; enzyme activity, inhibitor; 10 µM): 4%
CC(C)[C@H]1NC(=O)C[C@H]2/C=C/CCSSC[C@@H](NC1=O)C(=O)N[C@H](Cc1cccc3ccccc13)C(=O)NCC(=O)O2 — inhibition (CDK2 with cyclin E1; enzyme activity, inhibitor; 10 µM): -7.6%
O=C1NC(=O)c2c1c1cc(F)c[n+]3c1c1c2c2cc(O)ccc2[n]1[Ru-4]312([N]=C=S)[S+]3CC[S+]1CC[S+]2CC3 (stereo not shown) — remaining activity (CDK2 with cyclin A; enzyme activity; 100 nM, human enzyme, with: 10 µM ATP; relative to: untreated): 82%
CN(/N=C/c1ccccc1C(=O)O)c1nc(-c2ccccc2Cl)cs1 — inhibition (CDK2 with cyclin E1; enzyme activity, inhibitor; 1 µM): -11.6%
O=C(CN1CN(c2ccccc2)C2(CCN(C(=O)c3cnc4[nH]ncc4c3)CC2)C1=O)NCC(F)(F)F — inhibition (CDK2; inhibitor; concentration not given): < 50%
CN(C)[C@H]1C[C@@]23CC[C@@]4(O2)C(=CC[C@]2(C)[C@@H](c5ccc6ccncc6c5)CC[C@H]24)C=C3[C@@H](O)[C@@H]1O — inhibition (CDK2; ATP probe labelling, inhibitor, KiNativ profiling; 1 µM): 2.1%
CCOC(=O)[C@](CC)(CCCSCCOCCOCCNC(=O)c1ccc(-c2c3ccc(=N)c(S(=O)(=O)O)c-3oc3c(S(=O)(=O)O)c(N)ccc23)c(C(=O)O)c1)NC(=O)c1ccc(C2CC2)c(Cc2ccc(F)cc2)n1 — inhibition (CDK2 with cyclin A; enzyme activity, inhibitor; 10 µM): 5%

Excerpt of the above:
C[C@H](NCc1ccc(-c2ccc(C(F)(F)F)cc2)cc1)C(N)=O — inhibition (CDK2; cell-free assay, competition with immobilised ligand; 1 µM): 4%
